# Results gathered from unrelated publications.
# Each numbered part is a random draw from the data of one study; scales do not carry over between parts.

# Block 1
# Target: Centromere-binding protein 1, full length, His-tagged (CBF1, Saccharomyces cerevisiae, UniProt P17106, residues 1-351)
# UniProt P17106, sequence (whole entry, looked up): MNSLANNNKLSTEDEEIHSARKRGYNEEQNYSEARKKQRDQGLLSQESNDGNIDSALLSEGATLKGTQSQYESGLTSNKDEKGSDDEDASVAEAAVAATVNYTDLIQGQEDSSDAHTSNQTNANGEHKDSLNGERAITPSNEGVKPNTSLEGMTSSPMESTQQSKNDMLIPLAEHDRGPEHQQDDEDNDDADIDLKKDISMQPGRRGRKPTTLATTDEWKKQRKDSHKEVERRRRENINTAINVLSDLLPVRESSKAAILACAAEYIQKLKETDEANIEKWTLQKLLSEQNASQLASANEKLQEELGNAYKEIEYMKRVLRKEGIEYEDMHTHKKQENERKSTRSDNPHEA
# Technique: competition protein-binding microarray
# Form: double-stranded DNA, one strand shown
# Medium: in vitro
# Concentration: 2 µM
# Notes: whole 60-bp probe, lowest competitor level
# With: Pho4 competitor, 0.05 µM
# Direction: higher = stronger binding
# Constant ends, left off below: … GTCTTGATTCGCTTGACGCTGCTG
Sequence,fluorescence intensity [a.u.]
TCCCAAGGCCACCGTCACGATTGAAGGTTCCCGGTC,63.9
AATGGGAACACCTTACGCGTGAGATGGGCCCACCGC,68.8
CTCAATTATGGCCTCCACGTGCGGACGGGCGGCTAG,585
CTTCTGTAAATTTCGCACGTGTTTTGACGCGCCCCG,1180
CAGTCTGATTGCCATCACGTGATGGTAACGTAAGTC,10500

# Block 2
# Target: Interferon regulatory factor 7, full length, phosphomimetic (IRF7, Homo sapiens, UniProt Q92985, residues 1-503, S471D/S472D/S475D/S476D/S477D/S483D/S484D/S487D)
# Technique: protein-binding microarray
# Form: double-stranded DNA, one strand shown
# Medium: in vitro
# Concentration: 2200 nM top
# Notes: 60-bp whole probe
# With: salmon DNA 0.4 mg/ml
# Reference: random background probes
# Direction: higher = stronger binding
# Target sequence (chain): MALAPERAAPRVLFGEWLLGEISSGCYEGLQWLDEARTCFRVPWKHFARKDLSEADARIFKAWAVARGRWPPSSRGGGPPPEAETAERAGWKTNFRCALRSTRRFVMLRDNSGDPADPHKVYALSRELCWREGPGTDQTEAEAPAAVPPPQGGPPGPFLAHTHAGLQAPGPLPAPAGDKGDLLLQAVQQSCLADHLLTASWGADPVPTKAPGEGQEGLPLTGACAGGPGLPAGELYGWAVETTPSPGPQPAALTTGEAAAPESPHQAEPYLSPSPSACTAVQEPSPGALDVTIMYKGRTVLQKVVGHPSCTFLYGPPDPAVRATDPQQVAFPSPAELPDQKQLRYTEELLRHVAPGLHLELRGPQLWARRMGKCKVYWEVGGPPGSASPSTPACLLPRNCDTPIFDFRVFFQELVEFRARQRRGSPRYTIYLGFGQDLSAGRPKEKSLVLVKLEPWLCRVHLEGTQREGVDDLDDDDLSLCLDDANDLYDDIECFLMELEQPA
Sequence,fitted relative affinity [z-score]
GCCTAGCACGACGGTATCGGTCTCGTGACGTGCTAGGTCTTGATTCGCTTGACGCTGCTG,0.372
GCCTAGCACTCACCTTGGGCTCTAGGACTGTGCTAGGTCTTGATTCGCTTGACGCTGCTG,0.214
GCCTAGCACGACGGTATGGGTTTCGGGACGTGCTAGGTCTTGATTCGCTTGACGCTGCTG,1.33

# Block 3
# Target: Histone acetyltransferase KAT6A, winged helix 2, GST fusion (KAT6A, Homo sapiens, UniProt Q92794, residues 85-181)
# Technique: protein binding microarray
# Form: double-stranded DNA, one strand shown
# Medium: in vitro
# Concentration: not given
# Notes: 8-mer, flanks averaged, mean of 2 arrays, mostly near background
# Reference: not given
# Direction: higher = stronger binding
# Target sequence (chain): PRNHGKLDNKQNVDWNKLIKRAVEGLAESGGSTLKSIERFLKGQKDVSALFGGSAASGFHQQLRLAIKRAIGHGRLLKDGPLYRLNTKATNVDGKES
Sequence,E-score
AGCTCTGC,-0.059
CCTGCGAA,0.136
GAGCGAAA,0.176
AGAACTTC,-0.0378

# Single results of other studies
Molecule,target,assay,system,conditions,scale,endpoint,result
"PhoQ, residues 284 288 289 292 302 303 TAVSDG","PhoP, residues 12 14 15 18 19 DLLYY (Escherichia coli, UniProt P23836)","Sort-seq, item: YFP reporter",E. coli,"PhoQ-PhoP variant library, with: 10 µM Mg2+","reference: high Mg2+ state, higher = stronger signaling",fold induction,0.835
